{"data": "Assay results gathered from unrelated publications", "note": "A part holds a random share of what one study measured. Several values in a cell are separate wells, animals, samples, runs or records.", "sequence of UniProt Q9HAZ1 (whole entry, looked up)": "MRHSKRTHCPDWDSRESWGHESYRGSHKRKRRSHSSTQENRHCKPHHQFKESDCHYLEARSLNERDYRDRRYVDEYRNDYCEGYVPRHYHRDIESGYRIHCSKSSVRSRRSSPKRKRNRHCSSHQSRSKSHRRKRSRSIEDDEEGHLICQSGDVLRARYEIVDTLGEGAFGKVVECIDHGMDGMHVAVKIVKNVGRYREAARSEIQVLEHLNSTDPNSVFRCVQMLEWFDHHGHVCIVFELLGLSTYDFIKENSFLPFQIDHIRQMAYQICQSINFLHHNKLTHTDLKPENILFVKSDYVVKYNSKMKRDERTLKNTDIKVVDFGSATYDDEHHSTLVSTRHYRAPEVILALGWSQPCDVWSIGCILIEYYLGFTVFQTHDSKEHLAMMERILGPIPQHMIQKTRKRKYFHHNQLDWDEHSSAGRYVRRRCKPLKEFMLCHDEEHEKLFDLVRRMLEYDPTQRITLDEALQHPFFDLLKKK", "sequence of UniProt P49760 (whole entry, looked up)": "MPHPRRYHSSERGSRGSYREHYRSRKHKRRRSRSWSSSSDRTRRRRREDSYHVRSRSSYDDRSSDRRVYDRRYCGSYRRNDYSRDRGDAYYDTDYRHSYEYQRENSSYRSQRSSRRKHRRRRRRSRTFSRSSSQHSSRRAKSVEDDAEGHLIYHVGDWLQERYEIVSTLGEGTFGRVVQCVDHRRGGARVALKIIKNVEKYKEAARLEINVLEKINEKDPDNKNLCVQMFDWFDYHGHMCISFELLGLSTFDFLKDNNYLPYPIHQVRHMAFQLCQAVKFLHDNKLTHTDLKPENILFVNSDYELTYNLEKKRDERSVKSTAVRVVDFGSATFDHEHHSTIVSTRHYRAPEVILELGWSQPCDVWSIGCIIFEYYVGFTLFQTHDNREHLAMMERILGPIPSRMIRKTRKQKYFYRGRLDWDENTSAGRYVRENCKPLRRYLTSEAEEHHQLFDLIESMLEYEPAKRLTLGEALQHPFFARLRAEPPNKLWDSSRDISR", "sequence of UniProt P33981 (whole entry, looked up)": "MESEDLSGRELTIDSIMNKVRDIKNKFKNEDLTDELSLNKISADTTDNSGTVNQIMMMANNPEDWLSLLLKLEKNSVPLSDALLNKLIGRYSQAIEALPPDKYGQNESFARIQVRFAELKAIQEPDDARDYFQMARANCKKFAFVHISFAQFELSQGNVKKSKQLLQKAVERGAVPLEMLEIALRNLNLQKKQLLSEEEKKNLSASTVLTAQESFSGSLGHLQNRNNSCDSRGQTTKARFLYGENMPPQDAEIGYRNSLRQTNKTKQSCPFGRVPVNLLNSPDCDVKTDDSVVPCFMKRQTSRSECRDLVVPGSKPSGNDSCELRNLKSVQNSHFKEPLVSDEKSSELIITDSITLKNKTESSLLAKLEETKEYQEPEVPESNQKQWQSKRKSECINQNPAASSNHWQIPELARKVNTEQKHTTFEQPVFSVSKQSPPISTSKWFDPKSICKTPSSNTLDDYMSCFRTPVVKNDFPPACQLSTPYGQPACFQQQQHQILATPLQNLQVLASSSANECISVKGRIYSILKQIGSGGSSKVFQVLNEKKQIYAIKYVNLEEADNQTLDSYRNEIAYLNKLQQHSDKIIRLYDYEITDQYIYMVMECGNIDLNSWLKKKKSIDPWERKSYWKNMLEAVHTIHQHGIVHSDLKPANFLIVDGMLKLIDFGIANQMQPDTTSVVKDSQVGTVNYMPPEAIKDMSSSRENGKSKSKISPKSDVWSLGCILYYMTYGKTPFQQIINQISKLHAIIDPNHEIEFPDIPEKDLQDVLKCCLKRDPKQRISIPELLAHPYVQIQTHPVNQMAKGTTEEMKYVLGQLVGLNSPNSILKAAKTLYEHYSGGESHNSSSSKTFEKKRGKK"}
{"data": "Block 1", "SMILES": "C[C@@H]1CN(c2cc(-c3n[nH]c4ccc(OC5(C)CC5)cc34)ncn2)C[C@H](C)O1"}
{"target": "CLK2 (Homo sapiens, UniProt P49760)", "observed": "target engagement", "method": "NanoBRET", "sample": "live cells", "EC50": "0.59 µM and 2.14 µM and 3.25 µM"}
{"target": "MAP3K5 (Homo sapiens, UniProt Q99683)", "observed": "target engagement in cells", "method": "BRET", "EC50": "12 µM"}
{"target": "TTK (Homo sapiens, UniProt P33981)", "observed": "target engagement in cells", "method": "BRET", "EC50": "> 50 µM"}
{"target": "CLK4 (Homo sapiens, UniProt Q9HAZ1)", "observed": "target engagement", "method": "NanoBRET", "sample": "live cells", "EC50": "25.7 µM and 41.2 µM and 4.03 µM"}
{"data": "Block 2", "target": "Protein max, full length (MAX, Homo sapiens, UniProt P61244-2, residues 1-151)", "method": "protein-binding microarray", "molecule type": "double-stranded DNA, one strand shown", "sample": "in vitro", "tested at": "not given", "notes": "k-mer, scored over probes, only values ≥0.25", "reading": "higher = stronger binding"}
{"Oligonucleotide": "GCATGCAC", "E-score": 0.43}
{"Oligonucleotide": "CCCATGGC", "E-score": 0.294}
{"Oligonucleotide": "ACATGCCA", "E-score": 0.384}
{"Oligonucleotide": "GTGCCCAA", "E-score": 0.255}
{"Oligonucleotide": "CGCGCCCA", "E-score": 0.252}
{"Oligonucleotide": "CACCACGA", "E-score": 0.265}
{"Oligonucleotide": "GCATGTCC", "E-score": 0.353}
{"Oligonucleotide": "ACGTGCAT", "E-score": 0.454}
{"data": "Block 3", "target": "Serine/threonine-protein kinase MARK2 (MARK2, Homo sapiens, UniProt Q7KZI7)", "observed": "enzyme activity", "mode": "inhibitor", "tested at": "0.5 µM", "relative to": "control", "sequence of UniProt Q7KZI7 (whole entry, looked up)": "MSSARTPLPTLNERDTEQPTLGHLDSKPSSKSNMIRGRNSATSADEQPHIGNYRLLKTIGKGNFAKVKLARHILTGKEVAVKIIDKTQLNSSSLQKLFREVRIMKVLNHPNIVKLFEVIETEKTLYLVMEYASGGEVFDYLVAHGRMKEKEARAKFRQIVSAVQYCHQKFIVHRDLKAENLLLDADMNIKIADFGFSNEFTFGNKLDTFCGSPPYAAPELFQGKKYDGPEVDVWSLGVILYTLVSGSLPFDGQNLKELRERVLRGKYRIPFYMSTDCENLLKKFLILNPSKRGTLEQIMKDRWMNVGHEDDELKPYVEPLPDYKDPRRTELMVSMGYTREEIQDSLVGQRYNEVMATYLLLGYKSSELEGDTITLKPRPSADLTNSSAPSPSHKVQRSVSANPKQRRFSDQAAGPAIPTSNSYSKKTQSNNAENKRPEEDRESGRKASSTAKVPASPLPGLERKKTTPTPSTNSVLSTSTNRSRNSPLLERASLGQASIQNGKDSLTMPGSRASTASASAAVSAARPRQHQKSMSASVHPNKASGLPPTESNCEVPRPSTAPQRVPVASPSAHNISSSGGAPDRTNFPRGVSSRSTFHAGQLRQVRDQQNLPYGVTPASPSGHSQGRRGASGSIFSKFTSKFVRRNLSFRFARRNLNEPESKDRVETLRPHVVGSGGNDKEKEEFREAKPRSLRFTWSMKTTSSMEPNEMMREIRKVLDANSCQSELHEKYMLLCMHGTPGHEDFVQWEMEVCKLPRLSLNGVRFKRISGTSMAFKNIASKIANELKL"}
{"Compound": "Nc1ncnc2n[nH]c(Nc3ccc(F)cc3)c12", "remaining activity [%]": 87}
{"Compound": "COc1ccc(C(=O)Nc2sc3c(c2C(N)=O)CCCC3)cc1OC", "remaining activity [%]": 98.7}
{"Compound": "COc1cc2ncnc(Nc3ccc(F)c(Cl)c3)c2cc1OCCCN1CCOCC1", "remaining activity [%]": 119}
{"Compound": "O=C(Nc1cccc(Nc2cc(Nc3cccc(C(F)(F)F)c3)ncn2)c1)C1CC1", "remaining activity [%]": 101}
{"Compound": "CCOC(=O)c1c(C)[nH]c(/C=C2\\C(=O)Nc3ccccc32)c1C", "remaining activity [%]": 87.6}
{"Compound": "CN(C)c1ccc(C=C2C(=O)Nc3ccccc32)cc1", "remaining activity [%]": 105}
{"Compound": "CNC(=O)c1cc(Oc2ccc(NC(=O)Nc3ccc(Cl)c(C(F)(F)F)c3)cc2)ccn1", "remaining activity [%]": 94.9}
{"Compound": "Cn1sc(=O)n(Cc2ccccc2)c1=O", "remaining activity [%]": 118}
{"Compound": "Cc1ccc(Nc2nccc(N(C)c3ccc4c(C)n(C)nc4c3)n2)cc1S(N)(=O)=O", "remaining activity [%]": 111}
{"Compound": "CC(C)[C@H](CO)Nc1nc(Nc2cc(N)cc(Cl)c2)c2ncn(C(C)C)c2n1", "remaining activity [%]": 74.1}
{"Compound": "C#Cc1cccc(Nc2ncnc3cc(OCCOC)c(OCCOC)cc23)c1", "remaining activity [%]": 129}
{"Compound": "Cn1c2ccccc2c2c3c(c4c5ccccc5n(CCC#N)c4c21)CNC3=O", "remaining activity [%]": 11.8}
{"Compound": "Cc1cccc(-c2[nH]c(C(C)(C)C)nc2-c2ccc3c(c2)OCO3)n1", "remaining activity [%]": 90}
{"Compound": "O=S(=O)(c1cccc2cnccc12)N1CCCNCC1", "remaining activity [%]": 108}
{"Compound": "O=C(O)c1ccc2c3c1cccc3c(=O)n1c3ccccc3nc21", "remaining activity [%]": 87.7}
{"data": "Block 4", "target": "RING finger protein unkempt homolog, zinc fingers 1-6, GST-SBP tag (UNK, Homo sapiens, UniProt Q9C0B0, residues 30-357)", "method": "RNA Bind-n-Seq", "molecule type": "RNA", "sample": "in vitro", "tested at": "not given", "notes": "RNA with constant flanks, human-mouse chimeric sites, ends assumed", "relative to": "input RNA pool", "reading": "higher = stronger binding", "sequence of UniProt Q9C0B0 (30-357, looked up)": "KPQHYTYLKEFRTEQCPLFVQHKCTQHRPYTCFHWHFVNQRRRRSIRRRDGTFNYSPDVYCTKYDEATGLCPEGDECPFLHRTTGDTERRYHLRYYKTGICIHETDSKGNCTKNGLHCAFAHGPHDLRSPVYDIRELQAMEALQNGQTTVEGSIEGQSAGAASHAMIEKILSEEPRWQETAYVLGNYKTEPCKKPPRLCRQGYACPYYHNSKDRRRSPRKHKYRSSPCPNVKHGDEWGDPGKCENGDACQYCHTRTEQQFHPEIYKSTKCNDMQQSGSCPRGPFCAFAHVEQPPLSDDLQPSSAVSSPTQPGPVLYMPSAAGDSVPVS"}
{"Oligonucleotide": "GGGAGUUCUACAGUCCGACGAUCUAUAUCACCAAUGUUCUACAAAAUCCUGACUUGGCUCUGAGAAUGGCUGUGCGGAACAACUUAGCUGGUGCUGAAGAACUCUUUGCCCGGAAAUUUAAUGCUCUCUUCGCCCAGGGAAACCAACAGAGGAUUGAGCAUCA", "bound/input enrichment [ratio]": 0.273}
{"Oligonucleotide": "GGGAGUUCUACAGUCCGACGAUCUCAAGGGGGCACUGCAGAGCCAUGCCUUUCUUGGACAUACAGAAAAAGCUGGGCAUCAGCCUGGACCGGCACUUUAUGUUCCUAAGCGCAGAACAGCCCUAUAAGAACGCCGCUCGGUGCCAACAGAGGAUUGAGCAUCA", "bound/input enrichment [ratio]": 0.102}
{"Oligonucleotide": "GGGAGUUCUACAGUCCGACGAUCAAACAUCUGUCUUUAAGCAUUCCAAGCAAUGCUUGGGGGGUGAUCAUUGUUGCCCAUGUGCCUUCUGACUGAGCUUUAAUGCUGUUCCAUGUUACAUCUUUCCUUCACUCCAGAAUUGUUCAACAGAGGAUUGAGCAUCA", "bound/input enrichment [ratio]": 0.16}
{"Oligonucleotide": "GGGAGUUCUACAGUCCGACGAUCGACAGUGAAGAAGAGAUUAGAGAAGCAUUCCGUGUGUUUGAUAAGGAUGGCAAUGGCUAUAUUAGUGCUGCAGAACUUCGCCAUGUGAUGACAAACCUUGGAGAGAAGUUAACAGAUGAACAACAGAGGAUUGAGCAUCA", "bound/input enrichment [ratio]": 0.691}
{"Oligonucleotide": "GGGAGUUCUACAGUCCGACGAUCAAAGAGAAACUAAAGCAACUAAUAGAGAAGAGGAUUGGGCAAAGAGAUUUCAUAGAGAAACUAGGAUUUAUUAGCAAACAUGAGUUAGUAUUCCAGACGUCUCAGAAACCCCAGCCAAACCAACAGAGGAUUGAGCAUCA", "bound/input enrichment [ratio]": 2.17}
{"Oligonucleotide": "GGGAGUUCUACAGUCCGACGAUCGAACCUGCUCUCUCUGAUGAAGAUGAGGAAGACAAUGAUGAUGUUGAACCCAUUUCUGAAUUUCGAUUUGUGCCCAGUGAUAAGUCAGCAUUGGAGGCGAUGUUCACAGCAAUGUGUGAGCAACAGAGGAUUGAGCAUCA", "bound/input enrichment [ratio]": 0.288}
{"Oligonucleotide": "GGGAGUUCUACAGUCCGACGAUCGAAUCCUACUCAGGCGGAUUUUGCAACACCAAGCUCACAGCAGCAGCUCCAUAGUCACAGUAGGGUAGUUUUGGGGCUCUGUGGCCAGGGUUUUAUUCACAUGCAGGUUUUGAAAAUGUACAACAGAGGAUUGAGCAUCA", "bound/input enrichment [ratio]": 0.471}
{"Oligonucleotide": "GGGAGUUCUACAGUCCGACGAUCGCUCCUCCCCGCUCUGCAGCCUGGGGACACUGGGCUGCAUUUUUUUUCUUAUUUUUUUUUAAAACUCUCAGUGUAACUGUAUCCCGUGACAUUUCAUUUUUUUUAAAUAGUGUAUUUUUUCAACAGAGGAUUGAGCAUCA", "bound/input enrichment [ratio]": 23.8}
{"note": "Repeated from above (block 4):"}
{"Oligonucleotide": "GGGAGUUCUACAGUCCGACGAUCUAUAUCACCAAUGUUCUACAAAAUCCUGACUUGGCUCUGAGAAUGGCUGUGCGGAACAACUUAGCUGGUGCUGAAGAACUCUUUGCCCGGAAAUUUAAUGCUCUCUUCGCCCAGGGAAACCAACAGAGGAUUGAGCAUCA", "bound/input enrichment [ratio]": 0.273}
{"Oligonucleotide": "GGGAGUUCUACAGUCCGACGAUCGAACCUGCUCUCUCUGAUGAAGAUGAGGAAGACAAUGAUGAUGUUGAACCCAUUUCUGAAUUUCGAUUUGUGCCCAGUGAUAAGUCAGCAUUGGAGGCGAUGUUCACAGCAAUGUGUGAGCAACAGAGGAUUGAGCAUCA", "bound/input enrichment [ratio]": 0.288}
